{"data": "Assay results of several laboratories", "note": "Protocols differ between the studies behind these lines. “And” joins repeats or separate records; there may be more than shown. Numbers after ± are the reported error."}
{"SMILES": "c1csc(-c2ccc(-c3cccs3)s2)c1", "test system": "C57BL/6J mouse, diet-induced obese", "conditions": "intraperitoneal, 5 mg/kg daily, 336 h", "endpoint": "liver to body weight ratio", "result": "0.0392 ± 0.00459"}
{"SMILES": "Cc1n[nH]cc1-c1cc2nc([C@@H]3CC4CCN3CC4)[nH]c(=O)c2s1", "test system": "mouse COLO 205 xenograft", "conditions": "oral, 20 mg/kg twice daily, 7 days after dosing end, 28 days", "endpoint": "tumour volume", "result": "884 ± 289 mm3"}
{"SMILES": "Cc1cn(-c2cc(NC(=O)c3ccc(C)c(Nc4nccc(-c5cccnc5)n4)c3)cc(C(F)(F)F)c2)cn1", "test system": "human patients", "conditions": "dose not given, 12 to 6 months, unit not given", "scale": "relative to: placebo", "endpoint": "ADAS-Cog maze errors change", "result": 0}
{"SMILES": "Cc1nc(Nc2ccc(CC(=O)O)cc2)nc(Nc2ccc(F)c(C(F)(F)F)c2)c1C", "assay": "histology", "test system": "C57BL/6J mouse, high-fat diet MASH model", "conditions": "intraperitoneal, 0.3 mg/kg daily, 60% fat diet for 12 weeks, dosed final four weeks", "scale": "relative to: untreated", "endpoint": "liver parenchymal dysregulation", "result": "decreased"}
{"SMILES": "CCOc1cccc(-c2nnc(Cn3c(SCC)nc4ccccc43)o2)c1O", "assay": "relaxation", "test system": "isolated rabbit jejunum", "conditions": "spontaneous contractions", "endpoint": "EC50", "result": "0.16 ± 0.01 µg/mL"}
{"SMILES": "C[C@]12CC[C@H](n3ccnc3)CC1=CC[C@@H]1[C@@H]2CC[C@]2(C)C(n3cnc4ccccc43)=CC[C@@H]12", "assay": "Western blot", "test system": "male NRG mouse, CWR22Rv1 xenograft, tumour", "conditions": "dose not given, day 16", "endpoint": "full-length AR protein level", "result": "decreased"}
{"SMILES": "Clc1cc2c(cc1Cl)Oc1cc(Cl)c(Cl)cc1O2", "assay": "RNA-Seq, refers to: Ptgis", "test system": "female Sprague-Dawley rat, liver", "conditions": "dose not given", "scale": "relative to: vehicle", "endpoint": "mRNA level", "result": "5.3 fold"}
{"SMILES": "C=CC[C@@H]1c2ccc(OC)c(OC)c2CN2CCc3cc4c(cc3[C@H]12)OCO4", "test system": "P2rx7 A312V/A312V mouse, S. aureus wound infection", "conditions": "dose not given, day 0", "scale": "relative to: day 0", "endpoint": "relative wound size", "result": 1}
{"SMILES": "CCSc1nc2ccccc2n1Cc1nnc(-c2ccc(OC)cc2)o1", "assay": "relaxation", "test system": "isolated rabbit jejunum", "conditions": "spontaneous contractions", "endpoint": "EC50", "result": "0.27 ± 0.11 µg/mL"}
{"SMILES": "CC[C@H](C)[C@@H]1NC(=O)[C@@H]2CCCN2C(=O)[C@H](CC(C)C)NC(=O)[C@H](CC(C)C)NC(=O)CNC(=O)[C@@H](NC(=O)[C@@H](NC(=O)[C@H](CC(=O)O)NC(=O)CNC(=O)[C@@H](NC(=O)[C@H](C)NC(=O)CNC(=O)[C@H](CCCCN)NC(=O)[C@H](CC(C)C)NC(=O)[C@H](CC(C)C)NC(=O)[C@H](CCCCN)NC(=O)CNC(=O)[C@@H](NC(=O)[C@@H](N)CC(C)C)C(C)C)C(C)C)C(C)C)CSSC[C@@H](C(=O)O)NC1=O", "assay": "RNA-seq, refers to: Klk2-ps mRNA", "test system": "mouse traumatic brain injury, frontal cortex and hippocampus", "conditions": "dose not given", "scale": "relative to: TBI plus compound vs TBI", "endpoint": "log2 fold change", "result": -4.64}
{"SMILES": "CCSc1nc2ccccc2n1Cc1nnc(-c2cccc(OC)c2O)o1", "assay": "relaxation", "test system": "isolated rabbit jejunum", "conditions": "spontaneous contractions", "endpoint": "EC50", "result": "0.24 µg/mL"}
{"SMILES": "CCCCC1(CCCC)CN(c2ccccc2)c2cc(SC)c(OCC(=O)N[C@@H](C(=O)NCC(=O)O)c3ccccc3)cc2S(=O)(=O)C1", "assay": "refers to: HDL cholesterol", "test system": "human, serum", "conditions": "2.5 mg once daily, day 11", "endpoint": "serum HDL-C", "result": "51.6 mg/dL"}
{"SMILES": "Oc1ccc(Cc2ccc(O)cc2)cc1", "assay": "DPPH radical", "conditions": "300 µg/mL", "endpoint": "radical scavenging", "result": "23.4 ± 0.38%"}
{"SMILES": "C[C@H](N)Cn1ncc2ccc3c(c21)CCCO3.Cl", "assay": "agonist, drug discrimination", "test system": "rhesus monkey trained on DOM", "conditions": "s.c., 0.1 mg/kg", "endpoint": "maximum DOM-lever responding", "result": "100%"}
{"SMILES": "CCSc1nc2ccccc2n1Cc1nnc(-c2ccc(O)cc2)o1", "assay": "relaxation", "test system": "isolated rabbit jejunum", "conditions": "spontaneous contractions", "endpoint": "EC50", "result": "0.16 ± 0.05 µg/mL"}
{"SMILES": "Cc1c(C)c2c(c(C)c1O)CCC(C)(C(=O)O)O2 (centres unmarked)", "assay": "Fe3+ reduction, ferricyanide reduction", "conditions": "30 µg/mL", "endpoint": "absorbance", "result": "1.26 ± 0.032"}
{"SMILES": "O=C1O[C@H]2[C@@H]3OC(=O)c4cc(O)c(O)c(O)c4-c4c(O)c(O)c5oc(=O)c6c(c(O)c(O)c7oc(=O)c4c5c76)-c4c(cc(O)c(O)c4O)C(=O)OC[C@H]3OC(O)[C@@H]2OC(=O)c2cc(O)c(O)c(O)c2-c2c1cc(O)c(O)c2O (mixture of isomers)", "assay": "FeCl3 carotid thrombosis model", "test system": "mouse", "conditions": "oral gavage, 100 µg/g, 90 min, added: 10% FeCl3 for 3 min", "endpoint": "vessels not occluded", "result": "~50%"}
{"SMILES": "CSCC[C@@H]1NC(=O)[C@H](Cc2c[nH]c3ccccc23)NC(=O)[C@@H](NC(=O)CCNC(=O)[C@H](CCC(N)=O)NC(=O)[C@@H]2CCCN2C(=O)[C@@H]2CCCN2C(=O)[C@H](CCCNC(=N)N)NC(=O)[C@H](CCCNC(=N)N)NC(=O)[C@H](CCCNC(=N)N)NC(=O)[C@H](CCC(N)=O)NC(=O)[C@H](CCCNC(=N)N)NC(=O)[C@H](CCCNC(=N)N)NC(=O)[C@H](CCCCN)NC(=O)[C@H](CCCCN)NC(=O)[C@H](CCCNC(=N)N)NC(=O)CN)CSSC[C@@H](C(=O)O)NC(=O)[C@H]([C@@H](C)O)NC(=O)CNC(=O)[C@H](CC(C)C)NC(=O)[C@H](Cc2c[nH]cn2)NC(=O)[C@H](CCCNC(=N)N)NC(=O)[C@@H]2CCCN2C(=O)[C@H](CO)NC1=O", "assay": "immunohistochemistry, refers to: CSNK2A2", "test system": "NCI-H226 xenograft mouse, tumour tissue", "conditions": "intravenous, 2 mg/kg, day 16", "endpoint": "CK2α' staining", "result": "0.08 IOD/area"}
{"SMILES": "C[C@H]1O[C@@H](O[C@H]2CC[C@@]3(C)[C@@H](CC[C@]4(C)[C@@H]3C=C[C@]35OC[C@@]6(CCC(C)(C)C[C@H]63)[C@@H](O)C[C@]54C)[C@]2(C)CO)[C@H](O)[C@@H](O[C@@H]2O[C@H](CO)[C@@H](O)[C@H](O)[C@H]2O)[C@H]1O", "test system": "mouse, pair-fed, hepatic SIRT1 knockdown", "conditions": "dose not given, high dose", "endpoint": "liver to body weight ratio", "result": "3.32% and 3.97% and 3.64% and 2.73% and 3.88%"}
{"SMILES": "[131I-].[Na+]", "assay": "ATA response criteria", "test system": "human, papillary thyroid cancer, distant metastases", "conditions": "3700 MBq", "endpoint": "structural incomplete response", "result": "41.7%"}
{"SMILES": "C[C@]1(CO)Cc2ncn(-c3ccc(C#N)c(Cl)c3)c2C(=O)O1", "test system": "Japanese subjects", "conditions": "20 mg single dose", "endpoint": "urinary potassium excretion 0-24 h", "result": "26.6 mmol"}
{"SMILES": "CC[C@@H](C)[C@@H](NC(=O)[C@@H](Cc1ccc(O)cc1)NC(=O)[C@H]1CCCN1C(=O)[C@@H](CCCNC(=N)N)NC(=O)[C@H](N)Cc1c[nH]cn1)C(=O)N[C@H](C)C(=O)N[C@H](Cc1c[nH]cn1)C(=O)N[C@H](CCCNC(=N)N)C(=O)N[C@H](CCCCNC(=O)c1cccc(S(=O)(=O)F)c1)C(=O)N[C@H](Cc1ccc(O)cc1)C(=O)N[C@H](CO)C(=O)N[C@H](Cc1ccccc1)C(N)=O", "assay": "flow cytometry", "test system": "mouse orthotopic GL261-Luc glioma, brain tumour", "conditions": "dose not given, 2 weeks treatment", "scale": "relative to: CD45+ cells", "endpoint": "CD8+ T cells", "result": "64%"}
{"SMILES": "CCN1[C@@H](C(=O)NC23CCC(C(=O)O)(CC2)CC3)[C@H](c2cccc(Cl)c2F)[C@]2(C(=O)Nc3cc(Cl)ccc32)C12CCCCC2", "test system": "patients with advanced solid tumours", "conditions": "100 mg, 24 h after dose", "scale": "relative to: before dosing", "endpoint": "serum MIC-1 (GDF-15) level", "result": "increased"}
{"note": "Repeated from above:"}
{"SMILES": "C[C@]12CC[C@H](n3ccnc3)CC1=CC[C@@H]1[C@@H]2CC[C@]2(C)C(n3cnc4ccccc43)=CC[C@@H]12", "assay": "Western blot", "test system": "male NRG mouse, CWR22Rv1 xenograft, tumour", "conditions": "dose not given, day 16", "endpoint": "full-length AR protein level", "result": "decreased"}
{"SMILES": "Clc1cc2c(cc1Cl)Oc1cc(Cl)c(Cl)cc1O2", "assay": "RNA-Seq, refers to: Ptgis", "test system": "female Sprague-Dawley rat, liver", "conditions": "dose not given", "scale": "relative to: vehicle", "endpoint": "mRNA level", "result": "5.3 fold"}
